Measurements collected from several papers.
A part holds a random share of what one study measured. Values joined by “and” are separate records of one study, mostly repeats; a detail may differ.

Study 1 — read-out: enzyme activity; action: inhibitor; tested at: 0.5 µM; reference: control
Target: Lymphokine-activated killer T-cell-originated protein kinase (PBK, Homo sapiens, UniProt Q96KB5)
Residues (Q96KB5 1-322): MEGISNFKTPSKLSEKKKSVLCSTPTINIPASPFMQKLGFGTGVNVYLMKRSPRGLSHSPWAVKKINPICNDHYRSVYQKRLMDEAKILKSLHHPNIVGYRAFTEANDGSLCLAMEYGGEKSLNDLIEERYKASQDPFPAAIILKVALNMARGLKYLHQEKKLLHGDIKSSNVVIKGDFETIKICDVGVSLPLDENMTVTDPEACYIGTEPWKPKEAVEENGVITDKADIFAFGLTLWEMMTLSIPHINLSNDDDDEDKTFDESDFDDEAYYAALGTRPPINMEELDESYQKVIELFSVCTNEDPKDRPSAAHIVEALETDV
SMILES | remaining activity [%]
Oc1ccc(Nc2nc(-c3ccc(Cl)cc3)cs2)cc1 | 100
NC(=O)c1ccc(N(C(N)=O)c2c(F)cccc2F)nc1-c1ccc(F)cc1F | 110
Cc1cncc2cccc(S(=O)(=O)N3CCCN(C(=O)CN)C[C@@H]3C)c12 | 98.6
COc1ccc(S(=O)(=O)N(CCO)c2ccccc2CN(C)CC=Cc2ccc(Cl)cc2)cc1 | 95.3
CCCC(=O)Oc1ccc2[nH]c(C(=O)c3cc4ccccc4[nH]3)cc2c1 | 104
O=C1Cc2c([nH]c3ccc([N+](=O)[O-])cc23)-c2ccccc2N1 | 85.1
O=C1NC(=O)C(c2c[nH]c3ccccc23)=C1c1c[nH]c2ccccc12 | 100
CC(=O)c1ccc(N2CCOCC2)cc1O | 113
CC[n+]1c(/C=C/N(C)c2ccccc2)n(-c2ccccc2)c2ccc(-c3nc4ccccc4s3)cc21 | 107
O=S(=O)(NCCNC/C=C/c1ccc(Br)cc1)c1cccc2cnccc12 | 107
Nc1ncnc2c1cnn2-c1ccccc1 | 92.4

Study 2 — host: mouse; sample: microsomes or S9; tested at: 2 µM; time: 0.5 h
Compound | remaining compound [%]
Cc1cc(S(=O)(=O)Nc2c[nH]c(=O)c(C)c2)sc1Cl | 23.1
c1ccc2c(c1)CCCC2N1CCC2(CC1)Oc1ccccc1C1CC(c3ccncc3)=NN12 (stereo not shown) | 1.42
O=C(N1CCn2c1nc1ccccc12)C1(c2cccs2)CCCC1 | 1.96
O=C(c1ccccc1)N1CC(c2nc(-c3cccnc3)no2)C2(CCOCC2)C1 (stereo not shown) | 19.7
Cc1cnn(C2CCN(C(=O)c3ccc(-c4cc[nH]n4)s3)C2)c1 (stereo not shown) | 55.4
COc1cc(=O)[nH]cc1C(=O)N1CCOC(C)(c2ccccc2)C1 (stereo not shown) | 88.5
c1ccc(C(c2ccccc2)c2n[nH]c3c2CNCC3)cc1 | 74.1
COC(=O)Cc1cc(=O)n2nc(C)c(-c3ccc(F)cc3)c2[nH]1 | 0.643
CC(C)(C)c1ccc(C(=O)Nc2cc(-n3cnnn3)ccc2N2CCOCC2)cc1 | 4.65
COc1cc(=O)[nH]cc1C(=O)NCC(C)N1CCCCC1=O (stereo not shown) | 86.9
CCC(c1nc2c3c(C)c(C)n(-c4cc(C)ccn4)c3ncn2n1)N1C(=O)c2ccccc2C1=O (stereo not shown) | 53
O=c1c(C2CCCCC2)c(O)nc2n1CC(O)CS2 (stereo not shown) | 72.7
Cc1nc(N2CCN(c3ccccn3)CC2)nc2c1C(=O)CC(c1cccs1)C2 (stereo not shown) | 34.2
COC(=O)CC1C(=O)NCCN1S(=O)(=O)c1ccc(F)c(Cl)c1 (stereo not shown) | 54.5
CC(c1ccccc1Cl)N1CCN(Cc2cc[nH]n2)CC1 (stereo not shown) | 3.95
COc1ccc(C(Nc2nc(C)cc(C)n2)c2c(NC(=O)c3ccco3)sc(C)c2C)c(OC)c1 (stereo not shown) | 0.0553
COc1ccc(-c2nc(-c3ccc(OC)cc3)c(-c3ccc(OC)cc3)s2)cc1 | 93.1
COc1ccc(-c2nnc3c4ccccc4c(Cl)nn23)cc1 | 19.8
CCCN(CCC)c1nc(N)nc(-c2noc(C)n2)n1 | 5.62
Cc1cc(C)c(C)c(S(=O)(=O)N2CCN(CCc3cn(C)nn3)CC2)c1C | 8.63
CNc1cc(Cn2c(C(=O)c3cc(C)cc(Br)c3)c(C(C)C)c(=O)[nH]c2=O)cc(F)n1 | 5.23
Cc1cc2c(cc1S(=O)(=O)N(C)CC1OC3CCCCC3c3sccc31)NC(=O)CO2 (stereo not shown) | 83.6
O=C(O)C[C@@H](Cc1cc(F)c(F)cc1F)NC(=O)Nc1ccc(I)cc1 | 59.8
Cn1cc(C2(C)CN(Cc3nc(-c4cccs4)n[nH]3)CCO2)cn1 (stereo not shown) | 60.2
N#Cc1cc(-n2ccnc2-c2cc3n(n2)CCNC3)ccc1N1CCOCC1 | 65.7

Study 3 — read-out: cell-free assay; tested at: 10 µM
Target: 5-hydroxytryptamine receptor 5A (HTR5A, Homo sapiens, UniProt P47898)
Sequence of UniProt P47898 (whole entry, looked up): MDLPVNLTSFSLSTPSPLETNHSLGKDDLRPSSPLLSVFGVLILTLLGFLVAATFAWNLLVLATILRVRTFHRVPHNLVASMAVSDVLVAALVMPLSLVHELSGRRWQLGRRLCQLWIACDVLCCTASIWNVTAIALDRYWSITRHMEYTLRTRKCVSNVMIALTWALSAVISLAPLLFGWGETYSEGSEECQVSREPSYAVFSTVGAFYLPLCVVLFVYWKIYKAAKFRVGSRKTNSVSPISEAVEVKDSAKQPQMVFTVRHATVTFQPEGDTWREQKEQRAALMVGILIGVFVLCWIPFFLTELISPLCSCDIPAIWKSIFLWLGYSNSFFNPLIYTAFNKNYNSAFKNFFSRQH
SMILES | inhibition [%]
NC(=O)c1ccc2nc(-c3ccc(C4(N)CCC4)cc3)c(-c3ccccc3)n2n1 | 9.78
CCC(F)(F)c1cc(N2CCC(S(C)(=O)=O)CC2)nc2sc(C(N)=O)c(N)c12 | 6.16
CN1C(=O)[C@@H](N2CCc3c(nn(Cc4ccccc4)c3Br)C2=O)COc2ccccc21 | 38.2
Cc1cc2c(-c3ccco3)cnc(N[C@@H]3CCN(C)C[C@H]3C(=O)NC3CCCCC3)c2[nH]c1=O | 24.1
O=C1c2ccc(Nc3ccc(F)cc3F)cc2CCc2ccc(OC[C@H](O)CO)cc21 | 13.8
Nc1nc(NCc2ccccc2)nc(-c2ccccc2CO)n1 | 10.6
CN(C)[C@H]1CCN(c2cc(-c3ccccc3)nc3ccnn23)C1 | 5.42
CCOc1ccc(S(=O)(=O)Nc2ccc(Cl)cc2C#Cc2cnc(C(=O)O)cc2OC)c2ncccc12 | -24.6
CNC(=O)c1ccc(Nc2ncc(C(F)(F)F)c(NCc3nccnc3N(C)S(C)(=O)=O)n2)cc1 | -1.91
C[C@@]1(Cc2ccc(C#N)cc2)C(=O)N(c2cc(Cl)cc(Cl)c2)c2ncc(C(=O)NC3(c4nc(C5CCC5)no4)CC3)n21 | 2.14
Nc1nc(NCc2ccccc2)nc(-c2cccc(CO)c2)n1 | 0.66
CN1C(=O)[C@@H](N2CCc3cn(Cc4ccccc4)nc3C2=O)COc2ccccc21 | 21.1
Cc1noc([C@H]2C[C@@H](c3ccc(C(F)(F)F)cc3)CN(C(=O)N3CCS(=O)(=O)C3)C2)n1 | -14.6
CCOc1cc(N2C3COCC2CN(C(=O)[C@H]2C[C@H](O)CN2c2ccc(Cl)cc2)C3)ccc1Cl | 1.7
C[C@H](c1ccc(F)cc1)N(Cc1ccc(Cl)c(C(=O)O)c1)C(=O)c1cnc2ccccc2c1 | 1.77

Study 4 — action: antagonist
Target: Beta-1 adrenergic receptor (ADRB1, Homo sapiens, UniProt P08588)
Sequence of UniProt P08588 (whole entry, looked up): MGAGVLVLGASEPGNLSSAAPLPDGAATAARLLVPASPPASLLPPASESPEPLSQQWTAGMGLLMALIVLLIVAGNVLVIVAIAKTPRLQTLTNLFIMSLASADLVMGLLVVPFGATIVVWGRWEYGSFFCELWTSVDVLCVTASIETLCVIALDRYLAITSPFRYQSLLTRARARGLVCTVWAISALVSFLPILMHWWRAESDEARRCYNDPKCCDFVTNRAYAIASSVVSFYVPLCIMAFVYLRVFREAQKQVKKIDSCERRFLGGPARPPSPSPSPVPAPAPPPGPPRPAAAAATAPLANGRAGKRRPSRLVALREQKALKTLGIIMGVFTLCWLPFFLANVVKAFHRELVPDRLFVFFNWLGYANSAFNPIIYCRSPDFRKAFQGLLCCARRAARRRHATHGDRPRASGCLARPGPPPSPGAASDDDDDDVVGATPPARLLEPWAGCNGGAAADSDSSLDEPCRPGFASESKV
Compound | IC50 [µM]
C#CC1(OCC(O)CN2CCN(c3cccc(C(F)(F)F)c3)CC2)CCCCC1 (stereo not shown) | ≥ 100
COc1cc2nc(-c3cc4c(c(OC)c3)OCCNC4)cc(C)c2cc1OC | ≥ 100
COc1ccccc1-c1n[nH]c2ncc(-c3cccc(F)c3)nc12 | ≥ 100
Cc1nc(Nc2n[nH]c3c2CN(C(=O)N[C@H](CN(C)C)c2ccccc2)C3(C)C)c2sccc2n1 | ≥ 100
COc1ccccc1N1CCN(CC[C@H]2CN(C(=O)N3CCOCC3)CC[C@H]2CC(=O)O)CC1 | ≥ 100
COc1ccccc1N1CCN(C(C)C(=O)Nc2ccc(C(N)=O)cc2)CC1 (stereo not shown) | ≥ 100
COC(=O)[C@H](Cc1cccc(C(=N)N)c1)[C@@H](C)NC(=O)c1ccc(-c2cc[n+]([O-])cc2)cc1 | ≥ 100
CCN(CC)c1ccc(C2=C(Cl)C(=O)c3ncccc3C2=O)cc1 | ≥ 100
CN(C)c1cccc(-c2ncc3c(n2)OCCN(c2ccccc2)C3=O)c1 | ≥ 100
Fc1ccc(-c2c[nH]c([C@@H]3COCCN3Cc3cnc4ccccc4c3)n2)cc1 | ≥ 100
Cc1ccc(CNc2ncnc3[nH]ncc23)o1 | ≥ 100
N#Cc1ccc(C(=O)Nc2ccc([C@@H](O)[C@H]3COCC(=O)N3Cc3ccc(F)cc3)cc2)cc1 | ≥ 100

Study 5 — sample: hydrocarbon/water; pH: 7.4
Structure (SMILES) | logD
CC[C@@H]1NC(=O)[C@@H](CC)NC(=O)[C@H](CC(C)C)NC(=O)[C@H](Cc2ccccc2)NC(=O)[C@H]2CCCN2C(=O)[C@H](CC(C)C)NC1=O | -0.0718
CCCN1CC(=O)N[C@@H](CC2CCCCC2)C(=O)N(C)[C@@H](C)C(=O)N[C@@H](CC(C)C)C(=O)N(C)Cc2cn(nn2)CC(=O)N[C@@H](CC(C)C)C(=O)N(C)[C@@H](C)C(=O)N[C@@H](CC(C)C)C(=O)N2CCC[C@@H]2C1=O | 1.16
CC(C)C[C@@H]1NC(=O)[C@H](C)N(C)C(=O)[C@H](CC2CCCCC2)NC(=O)[C@H](C)N(C)C(=O)[C@H]2CCCN2C(=O)[C@H](CC(C)C)NC(=O)CN(CC(C)C)C(=O)[C@H](CC(C)C)NC(=O)Cn2cc(nn2)CN(C)C1=O | 1.17
CC[C@H]1C(=O)N[C@@H](CC(C)C)C(=O)N2CCC[C@@H]2C(=O)N(C)[C@@H](Cc2ccc(O)cc2)C(=O)N[C@@H](CC(C)C)C(=O)N(C)[C@H](C)C(=O)N1C | -0.417
CC[C@@H]1C(=O)N(C)[C@@H](CC2CCCCC2)C(=O)N[C@@H](CC2CCCCC2)C(=O)N2CCC[C@@H]2C(=O)N(C)[C@@H](Cc2ccc(O)cc2)C(=O)N[C@@H](CC(C)C)C(=O)N1C | 3.25
CCC[C@@H]1NC(=O)CN(CC)C(=O)[C@H](CC(C)C)NC(=O)Cn2cc(nn2)CN(C)C(=O)[C@H](CC(C)C)NC(=O)[C@H](C)N(C)C(=O)[C@H](CC)NC(=O)[C@H](C)N(C)C(=O)[C@H]2CCCN2C1=O | -2.86

Study 6 — cell line: mouse MPNST tumor cells; method: high-content immunofluorescence imaging; refers to: nuclear SOX9; tested at: 10 µM; time: 12 h; setting: mean of 2 replicates; reference: DMSO control; reading: higher = more nuclear SOX9
Structure (SMILES) | nuclear SOX9 intensity
NCCC[C@H](N)CC(=O)N[C@H]1CNC(=O)[C@H]([C@H]2C[C@H](O)NC(N)=N2)NC(=O)/C(=C/NC(N)=O)NC(=O)[C@H](CO)NC(=O)[C@H](CO)NC1=O | 104 % of DMSO
C=C(CC)C(=O)c1ccc(OCC(=O)O)c(Cl)c1Cl | 97.6 % of DMSO
CC(C)Oc1ccc(-c2c[nH]cc2CN(C)CCN)cc1 | 84 % of DMSO and 102 % of DMSO
COc1ccc(Nc2ncnc3ccc(OC)cc23)cc1 | 89.1 % of DMSO
O=C(NN=Cc1ccccc1O)c1ccccc1O | 111 % of DMSO
C/C(=C\C(=O)Nc1ccccc1C(=O)O)c1ccc2ccccc2c1 | 105 % of DMSO
Cc1cnc(NC(=O)c2cc(Oc3cnc(C(=O)N(C)C)nc3)c3cc(C)oc3c2)cn1 | 104 % of DMSO
CNC1(C)C2CCC(C2)C1(C)C (stereo not shown) | 102 % of DMSO and 115 % of DMSO
Clc1cccc(-c2nnnn2Cc2cccnc2)c1Cl | 95.2 % of DMSO
CC(=O)N(CC(O)CN(C(C)=O)c1c(I)c(C(=O)NCC(O)CO)c(I)c(C(=O)NCC(O)CO)c1I)c1c(I)c(C(=O)NCC(O)CO)c(I)c(C(=O)NCC(O)CO)c1I (stereo not shown) | 94.4 % of DMSO
Cc1cc(C)nc(NS(=O)(=O)c2ccc(NC(=S)NC(=O)COc3ccc(Br)cc3Cl)cc2)n1 | 90.8 % of DMSO
Cc1csc(S(=O)(=O)N(CC(C)C)c2cc3c(cc2OCc2ccc(C(=O)O)cc2)CCC3)n1 | 96.3 % of DMSO
CCN1CCCC1CNC(=O)c1cc(S(N)(=O)=O)ccc1OC (racemic) | 96.3 % of DMSO
Cc1cc(NC(=O)C2=C(O)c3ccccc3S(=O)(=O)N2C)no1 | 104 % of DMSO
CC(S)C(=O)NCC(=O)O (stereo not shown) | 146 % of DMSO

Study 7 — method: phase 2a trial; host: idiopathic pulmonary fibrosis patients
Compound: CC(C)n1cnc(-c2ccc(F)cc2)c1-c1ncc(C(=O)Nc2ccc(N3CCN(C)CC3)cc2)[nH]1
dose | setting | patients with rhinorrhoea [%]
30 mg once daily | grade 2 emergent event | 0
all arms | grade 4 emergent event | 0
all arms | grade 5 emergent event | 0
60 mg once daily | grade 3 emergent event | 0
